Assay results from different studies.
Every numbered part comes from another study and shows a few of its results, in no order.

Block 1 — technique: competition protein-binding microarray; form: double-stranded DNA, one strand shown; sample: in vitro; concentration: 2 µM; together with: Cbf1 competitor, 0.05 µM; reading: higher = stronger binding; endpoint: fluorescence intensity; shared flanks, not repeated: … GTCTTGATTCGCTTGACGCTGCTG
Target: Phosphate system positive regulatory protein PHO4, full length, GST-tagged (PHO4, Saccharomyces cerevisiae, UniProt P07270, residues 1-312)
Notes: whole 60-bp probe, lowest competitor level
Residues (chain): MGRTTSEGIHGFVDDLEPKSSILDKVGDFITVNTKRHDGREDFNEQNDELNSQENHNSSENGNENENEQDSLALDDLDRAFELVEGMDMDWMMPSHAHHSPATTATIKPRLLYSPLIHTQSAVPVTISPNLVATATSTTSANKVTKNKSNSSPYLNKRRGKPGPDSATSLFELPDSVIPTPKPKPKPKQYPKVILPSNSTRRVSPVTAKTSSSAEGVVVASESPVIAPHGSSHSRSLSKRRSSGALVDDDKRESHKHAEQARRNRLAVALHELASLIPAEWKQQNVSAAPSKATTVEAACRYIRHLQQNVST
TCAATGATCCCCTTGGGCGTGCAAAGCAAAAAGAAT: 8100 a.u.
CAAACTCGAATCCATCACGTTTCACAATTGTTCCAA: 11700 a.u.
CGGGGTTAAGTTTGAGTTGTGGGTGGCTTGCAGCAG: 4560 a.u.
AACTTCAGAAATTTGTCCGTGATGGTTTAATGGTCA: 4130 a.u.
CTTTCCCGATCTTGTCACGATACTTTAGCACATTTG: 6730 a.u.
CCTGGAGAACCGGGAGGCGTGGGTAAGTTGCTTGAA: 7900 a.u.
CGCCATTATAGTGTAAACGTGAGGTACGGATATCGA: 9000 a.u.
GTCTTGTCTCATTGAGCAGTGGGTGTCCCCACTTCA: 4430 a.u.
TTTCATAGCGGGCCAAGCGTGGGTAAAGTGCTGGAC: 5600 a.u.
CTAACGAAGGTTTGCTGAGTGGGTGACAAGCCAAGT: 3760 a.u.
CGGGGTTAAGTTTGAAACGTGGGTGGCTTGCAGCAG: 15000 a.u.
TTAAAAATAGACTATTCGACAACTTTCCTACTGCTA: 2540 a.u.
CTGGGGATCAGTTCTCACATGCATCATCCTTTAATA: 7470 a.u.
AAAGCGGTAATTTTTCACGTGTCCTCACATATCTAT: 14200 a.u.
TGCTGTGTATTAGTTATTAAATCGTCAAAACGATAC: 4320 a.u.
TCACCAGCCATTTTTGACATGACAGCTGGACCATTA: 3780 a.u.
TTCTGCCCTTAATCGCACGTGCCAGAAGACCTGTAC: 17400 a.u.
ATGTTAGCCTTTCACCACGTTCAGCAACCTTGTTGA: 9870 a.u.
ATATACATACACACATACATGCAAGCACATACATCC: 9140 a.u.

Block 2 — technique: EMSA with sequencing; form: double-stranded DNA, one strand shown; sample: in vitro; concentration: 10 and 20 nM; baseline: negative control set to 0; reading: higher = stronger binding; endpoint: normalised bound fraction
Target: Hepatocyte nuclear factor 3-alpha (Foxa1, Mus musculus, UniProt P35582, residues 1-468, full length assumed)
Sequence of UniProt P35582 (whole entry, looked up): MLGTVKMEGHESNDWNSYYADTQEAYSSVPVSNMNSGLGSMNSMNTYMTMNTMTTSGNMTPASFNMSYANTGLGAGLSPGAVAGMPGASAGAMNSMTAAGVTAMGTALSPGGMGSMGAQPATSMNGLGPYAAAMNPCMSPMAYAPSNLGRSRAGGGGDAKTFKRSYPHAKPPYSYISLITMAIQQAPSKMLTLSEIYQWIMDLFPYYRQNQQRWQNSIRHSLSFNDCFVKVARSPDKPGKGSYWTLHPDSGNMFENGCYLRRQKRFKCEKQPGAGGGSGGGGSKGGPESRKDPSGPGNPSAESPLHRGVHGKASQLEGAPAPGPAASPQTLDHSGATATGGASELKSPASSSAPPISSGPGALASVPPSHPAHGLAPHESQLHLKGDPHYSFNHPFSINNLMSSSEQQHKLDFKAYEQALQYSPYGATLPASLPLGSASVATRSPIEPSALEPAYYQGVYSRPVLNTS
Notes: whole designed probe, mean of two concentrations, ends assumed
Shared flanks, not repeated: GTGAGCGGTGCCCATTGATGGGGAAC … TTTCACTGGGATCGTGGGGAC
CAGCCTGCAGTGCGCTCAGTTAAACAATTCCAAATCAAGGAATTTTGTCTGATACAAGGAATTTGGGGTGTGTTTTCCTAACATGCACCCTGGGTAAATAGACTGGGGGGGGGGCGCATTTCCTGACCCAGCTGAAGCCAATATGCATTGCGGCCACAAGGTGGCGCGTCTGGGCCTGGCAAACCCCTGTGCT: 0.222 ratio
TTTTTTCTGTACAGGGAAAAATAGTGAATATTTCAAAATTGTGAAACAAAGAGTCTCTGTGGCAACTGTTGCATAACACTCATTAGACAATATGCAAACAAATGAGTGTGTCTGTGTTCCAATAAAACTGTATTTACAAAAGCAGAAGGCCACCCATGTGCCAATGTCCAAAGTTTCTCAACCAACCCCTGGT: 0.319 ratio
TCTTTTTCAGTATGACCATGCTTCCCACAGTTAAAATAAGCTCCAGGAAATGGAGTATTTCTTTTATCCACTCTCAGTTCTGCCATTGCCTGTGCCATCTAAGTAGCTTTATGCAGATTACCTCCGATACCATCACAGGCCTTGATATAATCAACTAAATGTGCTTTCCCTCTAATAGGTCACAGAGCAGCCT: -0.0718 ratio
ATCTTCCCCCTCTTCCTTGCCCCACCAGCTCACCTACGGGGGTTATTTGCAGATAGGAAAATAAATAAAGCCGGCATTCGTTAACCCTCTTCTGGCGCAAACTGCTGTTTGCTCTGGATGAATCATGGTCCTTTGGCGAGGCGTGGCTCCGGGAGAGCAAAGCACCGTGTCAGGGCCATGATCCGGGGTGGCC: 0.338 ratio
CACTCATAGTCTTGCTATCCTTCATATACAGAGATGACCCTCCCAAGCCTAAAATCAACAGGGGGAGGCATAGAGCTGTCCTTCTGGCTCTAAAGATTGCTTTACCATCATCCACGCCCATTCTTAGTCCAGCATGTGAGAGCCAGTGTGAAGTGAGCAGAATATGGCATAAGTATGGAGTCATACATCCTTA: 0.0287 ratio

Block 3 — technique: RNA Bind-n-Seq; form: RNA; sample: in vitro; concentration: 365 nM; baseline: no-protein control; reading: higher = stronger binding; endpoint: RBNS enrichment (R)
Target: RNA binding protein fox-1 homolog 2, RRM domain, GST-SBP tag (RBFOX2, Homo sapiens, UniProt O43251-10, residues 100-194)
Notes: natural RNA segment, single round, ends assumed
Shared flanks, not repeated: GGGAGUUCUACAGUCCGACGAUC … UGGAAUUCUCGGGUGCCAA
Target sequence (chain): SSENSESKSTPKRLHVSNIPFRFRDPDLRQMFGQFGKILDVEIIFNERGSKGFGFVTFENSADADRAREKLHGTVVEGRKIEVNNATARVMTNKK
AAUUGUUAUGUGAAAUUUUAGGGUAACGGUGAUUAAGCUCUGCACUGGUAUUUGGAAUUUUUUUUCCUUUAAUCUUUGGUUUAAAAACAUCUUAAAAUCACUUAUAUACA: 0.775
GCCGGGUCUGCCUCUUCUGGGAGGGCAGCAGGGCUACCCUGAGCUGAGGCAGCAGUGUGAGGCCAGGGCAGAGUGAGACCCAGCCCUCAUCCCGAGCACCUCCACAUCCU: 0.293
UGUAAUAUAGUUUUGUGAAUUUAUUGCACUGAUGUUGUACCUUGUGGUAUAUCUGUCCCUAUUAAAUAAGUGUUGUUUUCUCCUCUUUAAUAUUGCUGUGAACAGUGGUG: 0.447
UAUGUGUGCUAUUAAUUCAUAGAAAAUUAAUUUUAAAAAAUAUAAGGAAUAAAUCCAGUGAAGAAUGGUUGUUGAUCAUCUAUCCAAAGUCCCAGGUUUAAAAAGCAAAG: 0.719
GGAAGGAAAAAUGAGGAGAAAGAGUGUGGUAUCCUCCUUCUAAGACAGUGACCGAUUUCUCUGGGUUGGGCCAAGACUUUAUUUACUGCAUCAUGCAUGACUCACUCAGG: 18.4
UCCAUCCCAUGACAUUAUACUGUGAAGUGUAAGAGGACGGGGUUUUUUUAAACUUGGUAGAAAUGUCGGCAGCUGCUCUACACACAACUUCACUCAAGGCUUUGUUUCCA: 0.397
GUUAAUCCAGUUUCCUAUUAGAAAGUGUGUCUUUGCUAUUUCCUCUGUAAGAGAAUAGAAUGGCCUUGAGAGUUUAUGAAGGAUUUGCACACUCGUCUUGCCUAGGAAGU: 1.78
UGAAAACUGAGACUCACAUCCAAGGUUUCAAACCACAAAACCUUGGCAUGACUCUGCCAUGGUGUCACAGGCAUCUUGAUCAUGUCUUGACCAUAGAAUUGCUCUCUAGG: 0.284

Block 4 — technique: aptamer microarray, sandwich; form: DNA with 2'F-ANA; sample: in vitro; concentration: 200 nM; together with: Cy3 exosite-II aptamer, 400 nM; reading: higher = stronger binding; endpoint: mean fluorescence intensity; strand: GGTTGGTGTGGTTGG
Target: Prothrombin, mature alpha-thrombin (F2, Homo sapiens, UniProt P00734)
Notes: whole 15-mer aptamer, many near background
2'F-ANA at 2 6 7 8 12 13 14: 168 a.u.
2'F-ANA at 5 9 11 13 15: 51.8 a.u.
2'F-ANA at 1 2 6 7 8 9 14: 64.6 a.u.
2'F-ANA at 1 2 4 5 6 7 9 10 11 13 14: 50.6 a.u.
2'F-ANA at 3 4 6 7 10 12: 375 a.u.
2'F-ANA at 5 7 8 15: 85.7 a.u.
2'F-ANA at 1 2 4 6 7 10 14 15: 48.7 a.u.
2'F-ANA at 1 2 9 13 15: 152 a.u.
2'F-ANA at 1 2 4 6 7 11 12 14 15: 80 a.u.
2'F-ANA at 3 4 6 10 11 13: 213 a.u.
2'F-ANA at 2 4 8 9 10 11 12 13 15: 87.4 a.u.
2'F-ANA at 2 6 8 9 12 15: 665 a.u.
2'F-ANA at 3 7 8 9 11 13: 1070 a.u.
2'F-ANA at 1 4 5 6 7 8 9 15: 67 a.u.
2'F-ANA at 2 6 10 12 14: 101 a.u.
2'F-ANA at 2 3 4 5 6 9 11 14 15: 85.4 a.u.

A few entries again (block 4):
2'F-ANA at 3 4 6 10 11 13: 213 a.u.
2'F-ANA at 2 4 8 9 10 11 12 13 15: 87.4 a.u.
